Assay results collected from several papers.
A part holds a random share of what one study measured.

Series 1
Target: Histone acetyltransferase KAT6A, both winged helices, GST fusion (KAT6A, Homo sapiens, UniProt Q92794, residues 1-181)
Method: protein binding microarray
Molecule type: double-stranded DNA, one strand shown
Sample: in vitro
Concentration: not given
Setting: 8-mer, flanks averaged, mean of 2 arrays, mostly near background
Relative to: not given
Direction: higher = stronger binding
Construct (chain): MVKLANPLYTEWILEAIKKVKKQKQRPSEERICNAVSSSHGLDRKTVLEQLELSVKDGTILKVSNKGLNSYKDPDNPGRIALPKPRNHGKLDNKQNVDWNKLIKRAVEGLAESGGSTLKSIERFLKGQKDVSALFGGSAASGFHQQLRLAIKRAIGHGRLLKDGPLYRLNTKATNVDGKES
| Strand | E-score |
| --- | --- |
| CCGCGTTA | 0.312 |
| CGGCATAG | 0.203 |
| ATGTGCAA | -0.149 |
| GTGTACTA | -0.00112 |
| ACCCCAGA | -0.218 |
| TCTCGGAA | 0.0153 |
| CCCAGACC | -0.124 |
| CCGGTGAC | 0.13 |
| CCCAGTCC | -0.229 |
| CCGGTTAC | 0.241 |
| GACCCAGA | -0.134 |
| AGCCGCTG | 0.286 |
| ACGCTGTC | 0.0713 |
| CTCAGAAC | 0.0268 |
| ATCGGCCA | 0.137 |
| ATTGCTCC | -0.0718 |
| ATAGGTAG | -0.27 |
| AAACGGTG | 0.0183 |
| ACAAGGGA | -0.19 |

Series 2
Target: RNA binding protein fox-1 homolog 2, RRM domain, GST-SBP tag (RBFOX2, Homo sapiens, UniProt O43251-10, residues 100-194)
Method: RNA Bind-n-Seq
Molecule type: RNA
Sample: in vitro
Concentration: 365 nM
Setting: natural RNA segment, single round, ends assumed
Relative to: no-protein control
Direction: higher = stronger binding
All sequences stand within: GGGAGUUCUACAGUCCGACGAUC … UGGAAUUCUCGGGUGCCAA
Construct (chain): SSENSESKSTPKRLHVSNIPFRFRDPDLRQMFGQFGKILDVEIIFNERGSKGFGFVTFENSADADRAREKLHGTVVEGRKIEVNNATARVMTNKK
| Strand | RBNS enrichment (R) |
| --- | --- |
| UAAUUAGAAGCAUCUCCAGGCCUGGAGAAAAUUUGAACUUAUGGUCCCGGGCUGCUUUGUAGUGAGCCUGUUUCCACUGCUCUGGUAGCUGAGCCAGGCUAUGAGGAAAC | 0.548 |
| GAGAACAAAUACACACUUGACAUGGGAGCAAACUGGUUCUGAACUUUGUGACUGUUUGCUAGUGACGCAACUAUUGGUUUUUUGUCAACUGGGCAAUAUGGGUAAAAUUU | 0.849 |
| CUGUUCUUGUAGAUCUAGCUCCUCAGAGUUGGAGGAAGGCUGACAGAGAAGGUCUCCUCUGUGCUCCAUCCACACAGGAUGCCGGAGAGACAGCCCCUUGUGCUGUGAGC | 0.325 |
| GAGUGCGCAGCAAAUGACCUUCAUUGCCAGUUCCACCCUACUCCUCUCAUUUUUUAUACUAAGCAAUAACUUUCCAAAGCAAGAAGUUCAGGAUGGAGAGAGUCCCCUCC | 0.719 |
| GGUCAGGUUUCUGAGUACUGGCAUUGGAUUUUAAGCGGCAUGUGACCCUUUGUGUUUUAGUGACUCAGAAAAGUCAAGCCAUUUGCAAAAGUUAGCAGUUUGUUUUGUCA | 1.85 |
| AGUUUUAGGAACUGUAGUAAUGUGGCUUAGAAAGUAUAAUGGCCUAAAUGUUUUCAAAAUGUAAGUUCCUGUGGAGAAGAAUUGUUUAUAUUGCAAACGGGGGGACUGAG | 2.45 |
| AAAUAGUUUUACUGAUAAUCCAAUCACUUGGAUAGUUAAUUUUAUUACUUUUUGUUUCCUUUUUAAUAUUUAUUCUUCCCGUUAAGGGUUUUUUGGCUAUAAAUUCGUAC | 0.443 |
| GGUGUGGAUAAGGAAGGCUCCAGCGUCCGGGGCACUGCCCUUCCAGCAAGUUCCAAGCGCACUUUUGCAUUUGCCGAGCAGACUUUUGCAGAGCCGGUGGCAGAAGCAGU | 0.32 |

Series 3
Target: Probable WRKY transcription factor 50, DNA-binding domain (WRKY50, Arabidopsis thaliana, UniProt Q8VWQ5, residues 99-173)
Method: DNA-protein interaction ELISA
Molecule type: double-stranded DNA, one strand shown
Sample: in vitro, bacterial lysate
Concentration: not given
Setting: whole dsDNA probe, crude lysate protein
Relative to: highest signal in screen
Direction: higher = stronger binding
Target sequence (chain): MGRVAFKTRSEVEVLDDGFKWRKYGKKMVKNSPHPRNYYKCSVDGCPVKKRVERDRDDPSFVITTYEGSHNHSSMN
| Strand | relative absorbance |
| --- | --- |
| AAAAAACTAACCGTCGCAGGCGTGTGAAAA | 15.1 % of maximum |
| AAAAAAATCCCACTTCATTCTAAAAA | 20.8 % of maximum |
| AAAAAATCCCTGCTCCCCTGGTTCCTAAAA | 36.9 % of maximum |
| AAAAAACATAACCGCAAAATCCCTACAAAA | 9.13 % of maximum |
| AAAAAATCGCGTCCGTGCTCAATCCAAAAA | 22.2 % of maximum |
| AAAAAAGATTGACTCGTCTTACTCGAAAAA | 79.7 % of maximum |
| AAAAAATTAGCTTATCCTTGCTTGTGAAAA | 14.4 % of maximum |
| AAAAAAACTCTAGGTCAATATTATTCAAAA | 64.2 % of maximum |
| AAAAAAGGTGAGGAAGTTGGGTATGGAAAA | 16.6 % of maximum |
| AAAAAACACAGCATTAGGCTATCGGTAAAA | 14.2 % of maximum |
| AAAAAAGCTTCTCATGTTGTCTTAGGAAAA | 20.4 % of maximum |
| AAAAAATGTATTCGTGTCCACTCCATAAAA | 11.5 % of maximum |
| AAAAAAGTACATGCGTAGATAATGTTAAAA | 34.8 % of maximum |
| AAAAAAGCTAGTCGATTCGGCTTAGAAAAA | 12.4 % of maximum |
| AAAAAATTTGGTCTTCGTCCTCGCTTAAAA | 43.6 % of maximum |
| AAAAAATAGTACCGCTAATGGCTGACAAAA | 27.4 % of maximum |

Series 4
Target: Interferon regulatory factor 5, full length, phosphomimetic (IRF5, Homo sapiens, UniProt Q13568-2, residues 1-514, K96S/S451D/S453D/S456D/S462D)
Method: protein-binding microarray
Molecule type: double-stranded DNA, one strand shown
Sample: in vitro
Concentration: 250 nM
Setting: 60-bp whole probe
Added: salmon DNA 0.4 mg/ml
Relative to: random background probes
Direction: higher = stronger binding
All sequences stand within: GCCTAGCAC … GTCTTGATTCGCTTGACGCTGCTG
| Strand | log fluorescence [z-score] |
| --- | --- |
| TTAGGTATCCTACTGCTTTCGTGCTAG | 1.21 |
| GACGGTTTCGACAATGGGGACGTGCTA | 5.23 |
| ACTCATTTTCGTTTTGTGTCGTGCTAG | 6.16 |
| TCAATAATTTTTTTCTAACTGTGCTAG | 0.86 |
| GACGGACTGCTTTTCGTGACGTGCTAG | 0.181 |
| TCAAATTGTCCTTTCACACTGTGCTAG | 0.978 |
| GACGGTATCGGTCTTGGGACGTGCTAG | 5.08 |
| GACGATACCGGGTATCGAGACGTGCTA | 1.22 |
| TTAGGACTGGGGTTTCGGGTAGTGCTA | 2.89 |
| TCAATTCTGAATTCGAAACTGTGCTAG | 1.73 |
| GAAGGTTTCGGTTTCGGGACGTGCTAG | 10.4 |
| GACGGTATCGTCACTGGGGACGTGCTA | 0.537 |
| GACGCACTGGGACTGGGGACGTGCTAG | -0.392 |
| GACGGACTGCGACTGCTGACGTGCTAG | -0.514 |
| TCAGAATTAGGTTTCACACTGTGCTAG | 1.7 |
| TTAGGTTTCGATTATCGGTTAGTGCTA | 10.2 |
| ATATATATTCATATATATATGTGCTAG | 1.08 |
| TGGAGAGCATATTCTGTGACGTGCTAG | -0.36 |
| TTAGGTTTCGCCTTTCGGTTAGTGCTA | 9.01 |

Excerpt of the above (series 2):
| Strand | RBNS enrichment (R) |
| --- | --- |
| UAAUUAGAAGCAUCUCCAGGCCUGGAGAAAAUUUGAACUUAUGGUCCCGGGCUGCUUUGUAGUGAGCCUGUUUCCACUGCUCUGGUAGCUGAGCCAGGCUAUGAGGAAAC | 0.548 |
| GAGUGCGCAGCAAAUGACCUUCAUUGCCAGUUCCACCCUACUCCUCUCAUUUUUUAUACUAAGCAAUAACUUUCCAAAGCAAGAAGUUCAGGAUGGAGAGAGUCCCCUCC | 0.719 |
| AGUUUUAGGAACUGUAGUAAUGUGGCUUAGAAAGUAUAAUGGCCUAAAUGUUUUCAAAAUGUAAGUUCCUGUGGAGAAGAAUUGUUUAUAUUGCAAACGGGGGGACUGAG | 2.45 |
| GAGAACAAAUACACACUUGACAUGGGAGCAAACUGGUUCUGAACUUUGUGACUGUUUGCUAGUGACGCAACUAUUGGUUUUUUGUCAACUGGGCAAUAUGGGUAAAAUUU | 0.849 |
| GGUCAGGUUUCUGAGUACUGGCAUUGGAUUUUAAGCGGCAUGUGACCCUUUGUGUUUUAGUGACUCAGAAAAGUCAAGCCAUUUGCAAAAGUUAGCAGUUUGUUUUGUCA | 1.85 |
| AAAUAGUUUUACUGAUAAUCCAAUCACUUGGAUAGUUAAUUUUAUUACUUUUUGUUUCCUUUUUAAUAUUUAUUCUUCCCGUUAAGGGUUUUUUGGCUAUAAAUUCGUAC | 0.443 |
